Measured values collected from several papers.
Parts stem from different laboratories: compare values within a part only.

Block 1
Target: Histone acetyltransferase KAT6A, both winged helices, GST fusion (KAT6A, Homo sapiens, UniProt Q92794, residues 1-181)
Technique: protein binding microarray
Form: double-stranded DNA, one strand shown
Matrix: in vitro
Tested at: not given
Notes: 8-mer, flanks averaged, mean of 2 arrays, mostly near background
Reference: not given
Reading: higher = stronger binding
Construct (chain): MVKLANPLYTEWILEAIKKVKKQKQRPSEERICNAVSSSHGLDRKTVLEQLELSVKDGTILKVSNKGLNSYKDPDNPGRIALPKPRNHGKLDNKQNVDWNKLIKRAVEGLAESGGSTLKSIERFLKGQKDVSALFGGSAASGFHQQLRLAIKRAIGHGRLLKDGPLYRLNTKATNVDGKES
Oligonucleotide	E-score
GGACTGTA	-0.0935
AAAAAGAA	-0.129
GCCATGAC	0.00649
CACGCTCA	0.0498
ATAAATAG	0.0571
ATTCATAA	0.0686
AACTGCGA	0.0774
CAGGTAGC	0.049
ACTCCTTC	-0.218
GACTCTAC	-0.101
GTAGTTAA	0.0617
TACGGCAA	0.318
AGAGCACT	-0.207
AGAAGAAT	-0.164
TTCTGAAA	-0.0986
ACGGCCAC	0.173
AATCGCGT	0.15
GGACCTTA	-0.13
TAAGTGCA	-0.151
CCTAAGTA	-0.101
TCTCTGCA	-0.145
GGGCCCGA	0.0575
CATGCCTA	-0.124
CTGTGAAG	-0.174

Block 2
Target: Sal-like protein 4, full length isoform B (SALL4, Homo sapiens, UniProt Q9UJQ4-2, residues 1-616)
Technique: universal PBM
Form: double-stranded DNA, one strand shown
Matrix: in vitro
Tested at: not given
Notes: 8-mer, flanks averaged, mean of replicates
Reading: higher = stronger binding
Oligonucleotide	E-score
AATGTGCG	0.0666
CCAGTTCG	-0.198
ATAGGTCC	0.0672
ATGGGTTC	-0.191
GGCGGTTA	-0.153
GAATCCTC	-0.198
ATCGGGCC	-0.296
CTGTCCAC	-0.102
GCGCTGGA	-0.362
CCCAGTAG	-0.0587
ACTCTCAC	-0.0149
GATAACCC	-0.144
AGTTTAGC	-0.0284
AGGCGATA	0.077
CAGTAAGA	0.0574
AATGTCTG	0.139
CCGGGAAC	-0.265
ACACCGTG	-0.166
CCATCAAA	0.0136
CGTTCCAC	-0.0904
ATAATGGA	0.278
CGTCCGTC	-0.326
GGGGCCAA	-0.269
GGCTATAC	-0.103
TAATTTAA	0.299

Block 3
Target: Interferon regulatory factor 5, full length, phosphomimetic (IRF5, Homo sapiens, UniProt Q13568-2, residues 1-514, S451D/S453D/S456D/S462D)
Technique: protein-binding microarray
Form: double-stranded DNA, one strand shown
Matrix: in vitro
Tested at: 940 nM top
Notes: 60-bp whole probe
Together with: salmon DNA 0.4 mg/ml
Reference: random background probes
Reading: higher = stronger binding
Constant ends, left off below: GCCTAGCAC … GTCTTGATTCGCTTGACGCTGCTG
Oligonucleotide	fitted relative affinity
GACGGTTACGGTTTCGGGACGTGCTAG	3.44 z-score
TGATTGGTTGAACATGAACTGTGCTAG	-0.192 z-score
TACGGTTTCGGGTATCGGGACGTGCTA	8.77 z-score
TTTGGTTTCCTTTTCCTTTAGTGCTAG	3.85 z-score
TTTGGTATCGACTTTCGGTTAGTGCTA	9.12 z-score
GAAGGTCTCGGACTGGGGACGTGCTAG	0.307 z-score
GACGAACTGAGTTTCTAGACGTGCTAG	0.515 z-score
GACGATATCGGGTTTAGAGACGTGCTA	-0.315 z-score
AACGGTATCGGACTGGGGACGTGCTAG	2.57 z-score
TTCGGTTTCCTTTCCCTTTAGTGCTAG	2.5 z-score
GACGGTATAGACACTGGGGACGTGCTA	-0.444 z-score
AAGTTTCTCCTTTGTAAATAGTGCTAG	4.53 z-score
GACCATTTCAGTATCGAGACGTGCTAG	2.79 z-score
TCACTTTTATTTTCAGTACTGTGCTAG	1.82 z-score
GACGGTATCGACACTCGGGACGTGCTA	3.6 z-score
TCACTTCCCAATAATCTTACTGTGCTA	1.2 z-score
GACGTTTTCGGTCTCGGGACGTGCTAG	4.18 z-score
CACTCTCTGCTTGTATCTGGGTGCTAG	3.14 z-score
TCAGGTTTCGGTATCGGTTAGTGCTAG	14.2 z-score

Block 4
Target: RNA binding protein fox-1 homolog 2, RRM domain, GST-SBP tag (RBFOX2, Homo sapiens, UniProt O43251-10, residues 100-194)
Technique: RNA Bind-n-Seq
Form: RNA
Matrix: in vitro
Tested at: 365 nM
Notes: natural RNA segment, single round, ends assumed
Reference: no-protein control
Reading: higher = stronger binding
Constant ends, left off below: GGGAGUUCUACAGUCCGACGAUC … UGGAAUUCUCGGGUGCCAA
Construct (chain): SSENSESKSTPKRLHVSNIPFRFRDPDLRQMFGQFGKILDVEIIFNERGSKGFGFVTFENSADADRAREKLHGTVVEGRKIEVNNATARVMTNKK
Oligonucleotide	RBNS enrichment (R)
UGCUUACUGUAACUGCGGCCGGUUUAGUGACCCCAUGACUUACAGCCGGUUCUUACCUCUUAGGUGAAGGAGAUGACAUGUUUUUAGAAUUGCUGUGCAAGGCUCACCCU	0.68
GGGAGUGUGAGUGAGUGUGCAUGUGUCUGAAGUUCACCAUUGCCCCCACCUGCACCUAGCAAGGAACAGGUGUUUGAUGUAUUUUGCUCAUGACUGCAGUAUGCAUGUAU	17.3
GCCUCCUGGGUUCAAGCAGUUCUCUUGCCUCAGCCUCCCAAGUAGCUGGGAUGACAGGCGCACACCACCACGCCCAGCAAAUUUUUUGUAUUUUUAGUAGAAACGGGAUU	0.495
GCAGGCCUUUGCGUUUUUAUCCUUCAUAACCUUCAUCUUAAUUUGAACUUGUAGCUUGGACUUUAAGGUAGCAUGGCUCUAUUGCUGUCAAUUUACUGUUUCACUGCACA	0.612
CUUCAGUGAUUGACUUAAAGACUGGGAGGUAUAUUGCCUGUGAGAGAAAUGUCUUUUCAUGAAUCCUAAGGACAUGCUGUGUCAGCUAAACCUACAAUUGAUUGCUUCUA	0.542
UUGUGUAUAUUACUACAAAGACAACCCCAAACCAAUUUUUUUCCUGCGAAGUUUAAUGAUCCACAAGUGUAUAUAUGAAAUUCUCCUCCUUCCUUGCCCCCCUCUCUUUC	0.96
AGCCCAGGCAGGGUGAGCAGUCCCAGUGGUCCUAGUGCCGCAUCAGAUCCAGGUGGGUGAGGGCAGGAGGCCCCUGCGGAGGCAGCGUGGAUCUGCCCACACAUAGGCUA	0.344
CUGGAAGUGGUGUGUUCACAUACAGUGACCCUUGGCCACCAGACCACAGAGGAUGGAGCCUGGGAAGCAGCGAGGAAAUCACAGCCCCCUCGCCCCUGCCUCCCUUGCCC	0.297

Repeated from above (block 1):
Oligonucleotide	E-score
CACGCTCA	0.0498
ATAAATAG	0.0571
ATTCATAA	0.0686
AACTGCGA	0.0774
CAGGTAGC	0.049
ACTCCTTC	-0.218
GACTCTAC	-0.101
GTAGTTAA	0.0617
TACGGCAA	0.318
AGAGCACT	-0.207
AGAAGAAT	-0.164
TTCTGAAA	-0.0986
